Measured values from different studies.
Numbered parts are unrelated; each lists some results of a single study. Substitutions count along the parent as printed.

Series 1
Target: RNA binding protein fox-1 homolog 2, RRM domain, GST-SBP tag (RBFOX2, Homo sapiens, UniProt O43251-10, residues 100-194)
Method: RNA Bind-n-Seq
Molecule type: RNA
Sample: in vitro
Concentration: 365 nM
Notes: natural RNA segment, single round, ends assumed
Relative to: no-protein control
Direction: higher = stronger binding
Measurement: RBNS enrichment (R)
All sequences stand within: GGGAGUUCUACAGUCCGACGAUC … UGGAAUUCUCGGGUGCCAA
Target sequence (chain): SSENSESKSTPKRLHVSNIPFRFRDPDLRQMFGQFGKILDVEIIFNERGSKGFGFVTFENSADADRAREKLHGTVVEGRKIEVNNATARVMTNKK
UUUAUAAACAGCUUAAUAUAAAACAUUAUAGAUUUAGUGUUUGGCUUUUUUCCUUAUAAGUUUAUAAGUUUGAUUUCAGAUGUUGGAAAUGUGUGCUUUAUAGUGUUUAC: 0.593
ACCAUGUGGGGAUGCAGGAAAUCCUGCAGGGGUUGUGUGGGAGGCAGAUAGAUGGUGGUAUGUUGGGUGGAAAGACAAGUUGACCAAGUUCCCUUGUCGAUGCUGAUUCC: 1.13
GGCGGCUCCCCAGGGAUGCGCCGAGGGAGAUGGGAAACGGGGCGGAUGGCGCCCAGCCCAGCCCUAACUGCCAGCUGGCUGGGGUUGCGCCCCACUGCGCUGCUGACCUU: 0.345
GGCUCACCUGCGCGGGCUGGGGGGCCUGGCCUCCUGACCUUCGCCGCCCUGCCCUCCGCCGCUCCGCCUGAGCUCCCCGGUUUGCAGAAUGGAGGAGGGAAGUUGAAGGA: 0.739
ACCAUAGCUAAGUAGCAUCGCAGACUUAAGCGUACAAAGUGAUCUUGUUCACAAGUAAUCUGUUGACAGUGCCAAUAAAUGAUAAAAAAAAAAUUAACAUGUCACAAUGU: 0.504
AAAAUUCAGAAGUUAAUGGUUUUUUGUAAGCACAAAAGAAGUAUGGUAGAAAUUAAUCUUAACAAGACUUUAUGAGGCAGGAUCAAAUCCUAGUGGGCCUGAGCAGGUUU: 1.85
UAGCAAUCUACCUUAUAUAGAGCCUUCAGAAACUGUGAGUGGAAAUGAAUGCGCAGCGUAUGACUGUUGGUGAUAAGUGUAUCUGUGUGAGUGUGUGCAACUACUUGUGU: 2.24
GGACACGUAGAGAAAGGACAUUCAUGACAUCCCUGUGGUGUGGUUAAUGUGCGACGUGUCGCCCAAGCUCUGCCCUAAGAAGCUUCUUAGUGACUCCAGCCACCUGAGAG: 0.187
GUCAUGUAUGUGGUUUGGAGGCAGAAUUCUUGAACAUCUUUUGAUGAAGAACAAGGUGGUAUGAUCUUACUAUAUAAGAAAAACAAAACUUCAUUCUUGUGAGUCAUUUA: 0.365
ACAUGUAAUGAAAUUGUAGAUAAAGUGUAGUGCAUUGAAACAAAUGAACAAAAAGUAGAUACUUUUACUAUACAAGGGUGCUGGUGCAGAAAAAAAUAUAUAUAUUUUUG: 0.525
GUGAGUUUGAGAAACAAGUUGAAACUAAAAUUAAAAUACCAGCCAUUUAGGUGCUUUCUCUGGCAUCUAUAAAAGUAAAUUCUAGUGCCUGCCAAGUGAUGGAUUAUAAU: 1.18
AUCAAGAGCAAAACUGCACAAACUUGCACAUUGGAAAGUGCAACAAGUUCCCGUGAUUGCAGUAAAAAUAUUUACUAUUCUAAAAAAAUGAGAAUUGAAGACUUAGCCAG: 0.731

Series 2
Target: CRIPT, C-terminal peptide
Method: DHFR complementation, deep sequencing
Sample: yeast
Notes: single substitutions, model-inferred values
Relative to: wild type
Direction: higher = weaker binding
Measurement: binding free energy change
Starting sequence: ERBIN, PDZ domain 1 (human); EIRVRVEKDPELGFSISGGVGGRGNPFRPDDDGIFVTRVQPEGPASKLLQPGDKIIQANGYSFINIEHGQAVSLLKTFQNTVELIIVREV; partner TKNYKQTSV
F27N: 1.2 kcal/mol
G69D: -0.525 kcal/mol
K8D: 1.36 kcal/mol
Y61D: 0.0698 kcal/mol
V20G: 0.303 kcal/mol
I86E: 0.766 kcal/mol
D31F: 1.19 kcal/mol
L49S: 0.596 kcal/mol
H68N: 1.33 kcal/mol
L74Y: -0.0534 kcal/mol
I2C: 0.191 kcal/mol
Q70H: 0.022 kcal/mol
E1I: 0.324 kcal/mol
R5S: 0.0987 kcal/mol
S46G: -0.111 kcal/mol
R3Y: 0.0556 kcal/mol
Y61E: -0.0617 kcal/mol
E1P: 0.0348 kcal/mol
R3K: -0.145 kcal/mol
V72E: 1.49 kcal/mol
N80T: 0.0956 kcal/mol
H68A: 1.35 kcal/mol
V82I: 1.2 kcal/mol

Series 3
Target: Histone acetyltransferase KAT6A, winged helix 1, GST fusion (KAT6A, Homo sapiens, UniProt Q92794, residues 1-85)
Method: protein binding microarray
Molecule type: double-stranded DNA, one strand shown
Sample: in vitro
Concentration: not given
Notes: 8-mer, flanks averaged, mean of 2 arrays, mostly near background
Relative to: not given
Direction: higher = stronger binding
Measurement: E-score
Residues (chain): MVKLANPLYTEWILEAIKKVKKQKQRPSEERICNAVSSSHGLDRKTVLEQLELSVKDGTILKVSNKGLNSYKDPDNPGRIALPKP
AAAGGAAG: -0.108
CCCTGGGA: 0.00679
CACAGTCA: -0.264
GCACTATA: 0.0721
GATACGCC: 0.212
CAAGTTAC: 0.016
TACCGACA: 0.134
CTATCGTA: -0.1
AACATGTC: -0.0774
GCAGTTTA: -0.00917
CATTCCCC: -0.00513
AATATACG: 0.219
ATCTATGG: -0.202
CCCTCTTC: -0.102
CTTACAGC: -0.0518
CCATCCCC: -0.224
AATCTTGA: -0.195
AGTGCTTG: -0.0781
GTCGCCAA: -0.0232
CGTGTAGC: 0.0586
CAAGTTCC: -0.038
ACCAACGG: 0.169
GCGGTGCA: 0.213
CTAAGAGC: -0.0018
AGGCGGAG: 0.226

Series 4
Target: CCND3, cyclin fold, Cln2 fusion (human)
Method: yeast growth competition, sequencing
Sample: yeast
Notes: weak parent motif
Relative to: not given
Direction: higher = stronger binding
Measurement: normalised enrichment score
Starting sequence: E2F1 docking peptide (human); PPVKRRLDFETDH
PPVKRRLDIETDH [F9I]: 0.296
PPVSRRLDFETDH [K4S]: 0.678
PPVKRRLHFETDH [D8H]: 0.00523
PPVIRRLDFETDH [K4I]: 0.25
PPVKRRPDFETDH [L7P]: 0.266
PPVKRYLDFETDH [R6Y]: -0.313
PPVKRRTDFETDH [L7T]: 0.00698
PPVKRRLVFETDH [D8V]: 0.348
PPVKRRLDFEVDH [T11V]: 0.328
PPVKWRLDFETDH [R5W]: 0.402
PPVKRLLDFETDH [R6L]: 0.0689
PPVKRRLDFETGH [D12G]: 0.42
PPVKRRLDFSTDH [E10S]: -0.0129
PPVKRRLDFETVH [D12V]: 0.367
PPWKRRLDFETDH [V3W]: 0.0963
PPVARRLDFETDH [K4A]: 0.97
PTVKRRLDFETDH [P2T]: -0.0215

Series 5
Target: Sal-like protein 4, full length isoform A (SALL4, Homo sapiens, UniProt Q9UJQ4, residues 1-1053)
Chain of UniProt Q9UJQ4 (whole entry, looked up): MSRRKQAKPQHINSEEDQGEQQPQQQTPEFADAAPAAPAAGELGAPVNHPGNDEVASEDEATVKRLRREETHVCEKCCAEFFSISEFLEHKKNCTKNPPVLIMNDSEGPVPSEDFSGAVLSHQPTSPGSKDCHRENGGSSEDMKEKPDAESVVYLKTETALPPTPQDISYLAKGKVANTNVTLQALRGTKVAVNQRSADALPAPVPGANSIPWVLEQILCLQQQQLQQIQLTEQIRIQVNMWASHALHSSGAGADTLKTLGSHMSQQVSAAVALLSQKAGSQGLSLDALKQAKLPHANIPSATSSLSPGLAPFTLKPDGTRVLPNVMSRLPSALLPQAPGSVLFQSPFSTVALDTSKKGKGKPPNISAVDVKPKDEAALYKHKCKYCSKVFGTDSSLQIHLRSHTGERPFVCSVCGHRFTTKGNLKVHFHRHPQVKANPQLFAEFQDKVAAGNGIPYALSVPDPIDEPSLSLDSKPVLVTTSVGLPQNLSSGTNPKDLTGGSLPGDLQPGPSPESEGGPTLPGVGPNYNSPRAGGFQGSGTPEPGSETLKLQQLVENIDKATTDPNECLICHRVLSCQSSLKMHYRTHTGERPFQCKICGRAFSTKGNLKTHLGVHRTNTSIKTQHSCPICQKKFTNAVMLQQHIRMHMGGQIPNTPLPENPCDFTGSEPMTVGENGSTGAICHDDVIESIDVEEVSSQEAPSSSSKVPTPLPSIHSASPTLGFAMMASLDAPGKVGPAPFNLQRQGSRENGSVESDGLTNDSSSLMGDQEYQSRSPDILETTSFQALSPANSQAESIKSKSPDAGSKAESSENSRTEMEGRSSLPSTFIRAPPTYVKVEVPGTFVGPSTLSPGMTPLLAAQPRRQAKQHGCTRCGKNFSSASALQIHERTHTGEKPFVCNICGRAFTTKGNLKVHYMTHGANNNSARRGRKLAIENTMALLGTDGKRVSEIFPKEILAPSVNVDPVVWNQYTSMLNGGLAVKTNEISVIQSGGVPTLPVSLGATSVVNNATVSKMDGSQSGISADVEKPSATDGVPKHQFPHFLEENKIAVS
Method: universal PBM
Molecule type: double-stranded DNA, one strand shown
Sample: in vitro
Concentration: 600 nM
Notes: 8-mer, flanks averaged, mean of replicates
Direction: higher = stronger binding
Measurement: E-score
CTACATGC: 0.0693
GCACGCCA: -0.338
GGGAGCCC: -0.431
GAGGCCTA: -0.217
CCTCGCGC: -0.253
CGACACTA: -0.18
AACAAATG: 0.171
CCGAATCA: 0.0306
AGATAGCG: -0.0115
ATTGATAG: 0.204
CGCCGCAG: -0.309
AAAACTAA: 0.266
GTCGACCA: -0.0926
CTTCCAAC: -0.0575
AAGTCCGA: -0.00563
CGATAGGC: 0.0684
GTTAACTA: 0.211
GCGCAACC: -0.312
GCATTCGA: -0.0128
CATGCAGG: -0.214
CTGTTGTA: 0.0954
AGTATCCG: -0.0606
AGAGCGCC: -0.29
AGGTGGGA: -0.114
ATGTGGGC: -0.042

Further values, each from its own experiment
PhoQ, residues 284 288 289 292 302 303 SLANIV
fold induction (PhoP, residues 12 14 15 18 19 AQALL (Escherichia coli, UniProt P23836); Sort-seq, refers to: YFP reporter; E. coli; PhoQ-PhoP variant library, added: 10 µM Mg2+; relative to: high Mg2+ state, higher = stronger signaling): 15.6
